Experimental data from different studies.
± gives the spread as reported.
UniProt Q12809, sequence (whole entry, looked up): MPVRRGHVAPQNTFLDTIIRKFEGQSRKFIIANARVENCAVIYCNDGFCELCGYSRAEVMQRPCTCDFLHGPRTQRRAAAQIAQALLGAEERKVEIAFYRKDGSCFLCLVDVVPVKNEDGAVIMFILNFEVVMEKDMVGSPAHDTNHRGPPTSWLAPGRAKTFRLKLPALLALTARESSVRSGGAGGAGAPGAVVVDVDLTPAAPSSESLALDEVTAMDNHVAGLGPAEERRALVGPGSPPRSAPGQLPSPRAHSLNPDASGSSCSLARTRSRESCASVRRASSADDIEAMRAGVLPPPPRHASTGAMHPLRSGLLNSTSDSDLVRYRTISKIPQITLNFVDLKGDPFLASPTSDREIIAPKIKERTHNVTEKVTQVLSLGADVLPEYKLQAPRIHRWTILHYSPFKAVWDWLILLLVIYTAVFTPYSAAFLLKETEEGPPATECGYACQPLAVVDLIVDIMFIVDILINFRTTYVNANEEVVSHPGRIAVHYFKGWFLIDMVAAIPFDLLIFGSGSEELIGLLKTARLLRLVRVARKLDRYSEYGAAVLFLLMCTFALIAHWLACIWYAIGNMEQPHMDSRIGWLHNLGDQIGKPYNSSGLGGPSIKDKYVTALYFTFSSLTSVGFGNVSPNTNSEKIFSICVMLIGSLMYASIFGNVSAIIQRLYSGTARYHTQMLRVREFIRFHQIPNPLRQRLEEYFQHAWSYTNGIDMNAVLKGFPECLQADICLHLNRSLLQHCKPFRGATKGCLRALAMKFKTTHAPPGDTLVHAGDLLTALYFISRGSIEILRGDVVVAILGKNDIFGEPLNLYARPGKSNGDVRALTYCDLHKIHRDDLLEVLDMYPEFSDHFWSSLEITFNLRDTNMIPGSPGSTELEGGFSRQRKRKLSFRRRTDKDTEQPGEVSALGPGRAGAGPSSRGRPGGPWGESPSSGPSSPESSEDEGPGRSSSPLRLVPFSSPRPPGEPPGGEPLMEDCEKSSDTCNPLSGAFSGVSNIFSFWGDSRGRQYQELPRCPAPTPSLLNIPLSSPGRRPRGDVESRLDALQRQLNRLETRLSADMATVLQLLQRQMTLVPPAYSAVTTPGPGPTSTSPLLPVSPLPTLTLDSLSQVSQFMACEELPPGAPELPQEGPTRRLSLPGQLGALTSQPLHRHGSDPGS
UniProt O94956, sequence (whole entry, looked up): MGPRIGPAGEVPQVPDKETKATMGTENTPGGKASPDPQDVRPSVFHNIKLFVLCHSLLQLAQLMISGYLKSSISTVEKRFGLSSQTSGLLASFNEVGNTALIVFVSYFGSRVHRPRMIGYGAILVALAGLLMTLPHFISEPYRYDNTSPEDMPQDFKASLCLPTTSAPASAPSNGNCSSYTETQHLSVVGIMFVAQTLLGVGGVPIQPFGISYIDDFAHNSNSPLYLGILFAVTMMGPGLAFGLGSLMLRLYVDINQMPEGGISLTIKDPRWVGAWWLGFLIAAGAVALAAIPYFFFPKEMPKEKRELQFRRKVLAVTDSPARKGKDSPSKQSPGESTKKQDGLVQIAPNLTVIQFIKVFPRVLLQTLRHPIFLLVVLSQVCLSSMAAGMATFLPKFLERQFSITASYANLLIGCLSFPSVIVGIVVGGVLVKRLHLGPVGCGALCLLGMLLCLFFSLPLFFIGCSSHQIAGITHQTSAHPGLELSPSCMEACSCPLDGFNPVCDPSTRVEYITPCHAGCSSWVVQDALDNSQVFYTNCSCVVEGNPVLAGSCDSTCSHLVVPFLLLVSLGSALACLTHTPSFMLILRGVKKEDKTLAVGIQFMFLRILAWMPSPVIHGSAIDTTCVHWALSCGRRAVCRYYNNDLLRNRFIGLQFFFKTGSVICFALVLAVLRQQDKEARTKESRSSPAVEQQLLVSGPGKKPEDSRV

`NC(=O)c1ccc[n+](-c2ccccc2)c1` gave a CC50 of 60.5 µM (CRFK; cell growth or viability, ATP luminescence; 72 h).
`CN[C@](C)(C[18F])C(=O)O` has a tracer uptake of 2.8 %ID/g (A549 tumour model; host not given, heart; 2 h, tumour-bearing).
For `CC[C@H](C)[C@H](NC(=O)[C@H](CC(=O)O)NC(=O)[C@@H](NC(=O)[C@@H]1CCCN1C(=O)[C@H](CCCNC(=N)N)NC(=O)CCc1cn(CCOCCOCCOCCNC(=O)CCCCC[N+]2=C(/C=C/C=C/C=C3/N(C)c4ccccc4C3(C)C)C(C)(C)c3ccccc32)nn1)[C@@H](C)O)C(=O)N[C@@H](CCCCN)C(=O)N[C@H]1CSSC[C@@H]2NC(=O)[C@H](CCCNC(=N)N)NC(=O)CNC(=O)[C@H](CC(N)=O)NC(=O)[C@H]([C@@H](C)O)NC(=O)[C@H](CCCCN)NC(=O)CNC(=O)[C@H](Cc3ccccc3)NC(=O)[C@H](CCCNC(=N)N)NC(=O)[C@H](CO)NC(=O)[C@H](CCCCN)NC(=O)[C@@H]3CSSC[C@@H](C(=O)N[C@@H](Cc4ccccc4)C(=O)O)NC(=O)[C@H](CC(=O)O)NC(=O)[C@H](CSSC[C@H](NC(=O)[C@H](CCC(N)=O)NC(=O)[C@H](Cc4ccc(O)cc4)NC(=O)[C@H](CO)NC(=O)[C@H](CCC(=O)O)NC(=O)[C@H](CO)NC1=O)C(=O)N[C@@H](Cc1ccccc1)C(=O)N1CCC[C@H]1C(=O)N[C@@H](C(C)C)C(=O)N3)NC(=O)[C@H](Cc1ccccc1)NC(=O)CNC(=O)[C@H](CC(N)=O)NC(=O)[C@H](C(C)C)NC2=O`, the Hill coefficient was 0.8 ± 0.1 (KCNH2 (Homo sapiens, UniProt Q12809); ion current, two-electrode voltage clamp; Xenopus laevis oocytes).
Under “relative emission quantum yield”, `Nc1nc2c([C@@H]3O[C@@H]4COP(=O)(O)O[C@H]5[C@@H](O)[C@H](n6cnc7c(=O)[nH]c(N)nc76)O[C@@H]5COP(=O)(O)O[C@H]4[C@H]3O)snc2c(=O)[nH]1` is recorded as 19% (reference: parent monomeric nucleoside).
With `O=C(O)CCC(NP(=O)(O)OCCC[C@@H](NC(=O)CCC(NC(=O)c1ccc([18F])cc1)C(=O)O)C(=O)O)C(=O)O` (some centres unmarked) the tracer uptake was 0.4 %ID/g (PC-3 tumour model; host not given, tumour; intravenous, 2 h, tumour-bearing).
The CC50 of `O=C(O)CCCC1C2CCCN3CCCC(CN1S(=O)(=O)c1ccc(Cl)cc1)C23` (centres unmarked) is reported as 200 µM (HEK293T).
For `Cc1ccc(Nc2c(NC3CCN(Cc4ccccc4)CC3)c(=O)c2=O)cc1`, the viability was 94.83 ± 0.43% (SH-SY5Y; MTT; 12.5 µM, 24 h).
With `CC[C@H](C)C(=O)N1CCC(NC(=O)Nc2ccc(OC(F)(F)F)c(F)c2)CC1` the Cmax was 82.7 ng/mL (human, plasma; oral, 8 mg, single dose, healthy volunteers).
For `CCOC(=O)CC[C@@H](NC(=O)c1ccc(N(C)Cc2ccc3[nH]c(C)nc(=O)c3c2)s1)C(=O)OCC`, “uptake from medium” read 74.6 ± 6.7% (Mycobacterium tuberculosis; H37Rv; 10 µM, 24 h).
The CC50 of `COC(=O)CCCC1C2CCCN3CCCC(CN1Cc1ccc(Cl)c(Cl)c1)C23` (centres unmarked) is reported as greater than 200 µM (HEK293T).
The tracer uptake of `O=C(O)CCC(NP(=O)(O)OCCC[C@@H](NC(=O)CCC(NC(=O)CCCCCNC(=O)CCCCCNC(=O)c1ccc([18F])cc1)C(=O)O)C(=O)O)C(=O)O` (some centres unmarked) is reported as 4.44 %ID/g (PC-3 tumour model; host not given, kidney; intravenous, 2 h, tumour-bearing).
For `O=C(O)CC1C2CCCN3CCCC(CN1CCCc1ccc(Cl)c(Cl)c1)C23` (centres unmarked), the CC50 was 83.3 µM (HEK293T).
The revertant count of `COc1ccc(CNc2nc(N3CCC[C@H]3CO)ncc2C(=O)NNC(=O)c2cnc(N3CCC[C@H]3CO)nc2NCc2ccc(OC)c(Cl)c2)cc1Cl` is reported as 209 ± 22 (Salmonella typhimurium; TA102; 125 µg/plate, together with: rat liver S9).
`O=C(O)CCC(NP(=O)(O)OCCC[C@@H](NC(=O)CCC(NC(=O)CCCCCNC(=O)c1ccc([18F])cc1)C(=O)O)C(=O)O)C(=O)O` (some centres unmarked) has a tracer uptake of 0.17 %ID/g (PC-3 tumour model; host not given, bone; intravenous, 2 h, tumour-bearing).
For `CC(CCC(=O)NCC(=O)O)C1CCC2C3C(O)CC4CC(OC5OC(C(=O)O)C(O)C(O)C5O)CCC4(C)C3CCC12C` (centres unmarked), the IC50 was greater than 100 µM (SLCO2B1 (Homo sapiens, UniProt O94956); transporter uptake, inhibitor).
For `COc1cc(C(=O)NCCOCCOCCOCCNC(=O)c2ccc([18F])nc2)ccc1NC(=O)C1NC(CC(C)(C)C)C(C#N)(c2ccc(Cl)cc2F)C1c1cccc(Cl)c1F` (centres unmarked), the tracer uptake was 0.57 %ID/g (SJSA-1 tumour model; host not given, blood; 2 h, tumour-bearing).
For `COc1ccc(-n2cc(C(=O)N3C[C@]4(OC(=O)c5ccccc5NC(C)=O)CC[C@H](OC)[C@@]56[C@@H]4C[C@@H]([C@@H]35)[C@@]3(O)C[C@H](OC)[C@H]4C[C@@H]6[C@]3(O)[C@H]4OC)nn2)cc1`, the AUC(0-inf) was 42.9 ng·h/mL (Sprague-Dawley rat, plasma; intravenous, 2 mg/kg).
`Oc1ccc(Nc2ccnc3cc(Cl)ccc23)cc1` has a CC50 of greater than 100 µM (BHK-21 DENV2 replicon cells; 24 h).
For `C[C@@](O)(C(F)F)[C@H](NC(=O)c1ccc(C#CC#CC2CC2)cc1)C(=O)NO`, the clearance was 12 mL/min/kg (dog, plasma; intravenous, 100 mg/kg).
The revertant count of `COc1ccc(CNc2nc(N3CCC[C@H]3CO)ncc2C(=O)NN)cc1Cl` is reported as 172 ± 8 (Salmonella typhimurium; TA97a; 1000 µg/plate, 48 h, together with: rat liver S9).
For `CN(C)CC1CCCCC1(O)c1cccc(O)c1` (centres unmarked), the Papp B→A was 12 ×10⁻⁶ cm/s (Caco-2; 10 µM, 3 h, pH 6.8).
`N[C@]1(c2ccccc2Cl)CCC[C@H](O)C1=O`: “apparent volume of distribution” 7.35 ± 0.736 L/kg (Wistar rat; intravenous, 20 mg/kg).
`CCC(=O)N(C)c1ccc(Cl)c(Cl)c1` gave a revertants of 16 ± 3.5 revertants/plate (Salmonella typhimurium; Ames test; TA1535; 0.05 mg/plate, with rat liver S9).

For quick reference, copied from above:
For `O=C(O)CC1C2CCCN3CCCC(CN1CCCc1ccc(Cl)c(Cl)c1)C23` (centres unmarked), the CC50 was 83.3 µM (HEK293T).
The revertant count of `COc1ccc(CNc2nc(N3CCC[C@H]3CO)ncc2C(=O)NNC(=O)c2cnc(N3CCC[C@H]3CO)nc2NCc2ccc(OC)c(Cl)c2)cc1Cl` is reported as 209 ± 22 (Salmonella typhimurium; TA102; 125 µg/plate, together with: rat liver S9).
